# Measurements of several laboratories.
# Numbered parts are unrelated; each lists some results of a single study. Substitutions count along the parent as printed.

# Series 1 — technique: RNA Bind-n-Seq; molecule type: RNA; matrix: in vitro; concentration: 365 nM; reference: no-protein control; direction: higher = stronger binding
# Target: RNA binding protein fox-1 homolog 2, RRM domain, GST-SBP tag (RBFOX2, Homo sapiens, UniProt O43251-10, residues 100-194)
# Notes: natural RNA segment, single round, ends assumed
# All sequences stand within: GGGAGUUCUACAGUCCGACGAUC … UGGAAUUCUCGGGUGCCAA
# Residues (chain): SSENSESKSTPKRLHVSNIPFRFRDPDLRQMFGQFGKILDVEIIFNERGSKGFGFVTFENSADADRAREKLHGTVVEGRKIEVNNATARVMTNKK
Sequence,RBNS enrichment (R)
UUCUGCCCCCAGCCCCACCCCCCAACCAGUCUGCCUGUUGCCCCACUCAGCCCUGAGUGUUAGGCACUGGCAGAGAGGCAAUGGCAGGCUCACCUUGAUGGAGGGACUGG,0.487
GUCUCUGUAGCUAAUUUAAUUUGCUCUUCGUGUGGCAGAUCAUUCUGCCAAAAUACUUGAACACUGUGUUUUAUUGUGGUAAUUAUGUUUUGUGACUCAAACUUCUGUGC,0.806
UCGUCAUUUCUGUGUCCUCAAUUUUAUCUGAAAGAUUAAAACAAAAUAUAUUAUGUCACUAUUCAGUUCAUGGAGGUUUGUGCUUUUUCAUAUUUUGUGAUAUAUAAGUA,0.927
CACUCACCCCUUCUAAUCCUGAAGGGAAGCCCAUUCUAAACUCCUUUCCUGCAAACCCAUUUCCAGCUCCUAGUAGCUUUCCUCCCAAAGGCUUUCUUUCCAAUCCUUUA,0.775
UCUCUGUAUCUUUUUUUUACUAUUGUUGUUUUGACCUCAAAGCUGGGAAUAAAAGUCAGAGCCUUACACAUGUCCAGCAAAAACUAUGGUUGGGAUACACCUAUUAUCCC,0.805
GUAGUGUAAGUGGAGAACCAGGAUCCUGAGAUGAGCUUGAGCUUUAAAAACUUGGGACUAUACAUGGUGAACUUACAGGAGGUUAGGGGGGAAAUAUUACUUAUCCAUCA,0.388
AACUUUGUACUGUACGUCACAGUGAUGAGUGUGACAGCUCAGCUCUUUGAUUUCAUAGUGAGUUUUCUAAAAGACCAGCCGACUAGCUUUUGCAGACUUUGAACAGAACU,0.306
UGAUGUAUUAAGAUUGAUAAUAUUGCUGAUUUAAAUUUUAUUUAUGCACAUACUUAAAGGACAGAAAUGUCUGGUAAAGUAAUUGUUAAAUAAUGAUAUGUAGCUUUUUA,0.379

# Series 2 — technique: DHFR PCA, deep sequencing; matrix: yeast; together with: (+)-ABA 710 µM; reference: wild-type fitted maximum; direction: higher = stronger binding
# Target: ABI1, truncated, D143A, DHFR fusion (Arabidopsis thaliana)
# Notes: methotrexate growth selection, single substitutions
# Starting sequence: PYL1, truncated, DHFR fusion (Arabidopsis thaliana); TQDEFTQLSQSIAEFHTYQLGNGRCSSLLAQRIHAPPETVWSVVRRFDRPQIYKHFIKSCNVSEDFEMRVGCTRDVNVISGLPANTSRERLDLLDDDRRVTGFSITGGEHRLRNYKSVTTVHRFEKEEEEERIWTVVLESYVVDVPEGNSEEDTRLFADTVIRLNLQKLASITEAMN; partner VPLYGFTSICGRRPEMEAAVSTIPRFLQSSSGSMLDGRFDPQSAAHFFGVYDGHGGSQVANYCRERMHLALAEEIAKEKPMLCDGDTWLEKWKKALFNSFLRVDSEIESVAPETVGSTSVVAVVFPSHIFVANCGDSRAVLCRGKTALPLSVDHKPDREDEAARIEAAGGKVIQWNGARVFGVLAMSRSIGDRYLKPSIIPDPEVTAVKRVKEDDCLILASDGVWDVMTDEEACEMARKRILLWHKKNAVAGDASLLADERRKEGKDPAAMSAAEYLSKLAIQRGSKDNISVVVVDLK
Substitution,relative binding score
A170F,19.4%
F103G,-3.1%
R49C,97.8%
E128M,103%
C25H,69.2%
V78T,102%
F15A,76.8%
V70Y,77.5%
T1W,95%
Q2N,102%
P146R,43.4%
R45Y,26.4%

# Series 3 — target: CCNF, cyclin fold, Cln2 fusion (human); technique: yeast growth competition, sequencing; matrix: yeast; notes: strong parent motif; reference: not given; direction: higher = stronger binding
# Starting sequence: RBL2 docking peptide (human); STTRRRLFVENDS
Substitution,normalised enrichment score
STGRRRLFVENDS [T3G],6.35
STTRRRGFVENDS [L7G],-0.225
STTRRRLFVANDS [E10A],7.15
SCTRRRLFVENDS [T2C],8.18
STTRRRLFVENSS [D12S],8.29
STTMRRLFVENDS [R4M],4.5
STTLRRLFVENDS [R4L],1.69
STTRRRWFVENDS [L7W],1.63
STTRRRLFVENWS [D12W],8.08
STTRKRLFVENDS [R5K],4.57
STTRFRLFVENDS [R5F],0.915
ETTRRRLFVENDS [S1E],5.66
GTTRRRLFVENDS [S1G],8.2
FTTRRRLFVENDS [S1F],8.44
STTRRRLIVENDS [F8I],5.07
STTRRRLFVENDV [S13V],7.49

# Series 4 — technique: protein-binding microarray; molecule type: double-stranded DNA, one strand shown; matrix: in vitro; concentration: 250 nM; notes: 60-bp whole probe; together with: salmon DNA 0.4 mg/ml; reference: random background probes; direction: higher = stronger binding; all sequences stand within: GCCTAGCAC … GTCTTGATTCGCTTGACGCTGCTG
# Target: Interferon regulatory factor 7, full length, phosphomimetic (IRF7, Homo sapiens, UniProt Q92985, residues 1-503, S101K/S471D/S472D/S475D/S476D/S477D/S483D/S484D/S487D)
# Sequence of UniProt Q92985 (whole entry, unmodified, looked up): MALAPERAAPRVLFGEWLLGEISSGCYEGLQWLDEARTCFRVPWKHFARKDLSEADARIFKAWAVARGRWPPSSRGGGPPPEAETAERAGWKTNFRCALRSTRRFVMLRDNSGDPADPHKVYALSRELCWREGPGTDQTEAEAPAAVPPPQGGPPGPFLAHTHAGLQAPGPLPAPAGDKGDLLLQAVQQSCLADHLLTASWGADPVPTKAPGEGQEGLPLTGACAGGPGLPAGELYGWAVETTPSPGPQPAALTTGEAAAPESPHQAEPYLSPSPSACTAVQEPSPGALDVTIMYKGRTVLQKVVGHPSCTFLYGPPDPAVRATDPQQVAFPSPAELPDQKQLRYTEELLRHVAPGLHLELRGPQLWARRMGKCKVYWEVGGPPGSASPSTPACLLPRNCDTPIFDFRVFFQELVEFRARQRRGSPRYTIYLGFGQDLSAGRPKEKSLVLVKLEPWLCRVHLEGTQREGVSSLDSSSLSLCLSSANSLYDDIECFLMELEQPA
Sequence,log fluorescence [z-score]
TTAGTACTGAGTTTCGATTAGTGCTAG,7.8
TCATGTAACTCCTATCCAACTGTGCTA,0.128
GGCGAACTGGGGTTTCGAGACGTGCTA,1.42
TCAATTTTGCTTCTAGAACTGTGCTAG,0.285
GACGGTCTCCTTACCCTGACGTGCTAG,0.0982
GACGGACTGGGGTTGCGGGACGTGCTA,-0.563
TTAGGACTGGTTTTCGGTTAGTGCTAG,3.56
TTAGGTTTCTTTATCCTTTAGTGCTAG,2.79
TTAGGTATCGGACTGGGTTGGTGCTAG,0.142
TTAGATTCGAGTTTCGATTAGTGCTAG,11.6
TCAATTCTCTGCTTGCGACTGTGCTAG,0.694

# Excerpt of the above (series 2):
Substitution,relative binding score
A170F,19.4%
F103G,-3.1%
R49C,97.8%
E128M,103%
C25H,69.2%
V78T,102%
F15A,76.8%
